Experimental data from different studies.
Protocols differ between the studies behind these lines. ± gives the spread as reported.
Chain of UniProt P08684 (whole entry, looked up): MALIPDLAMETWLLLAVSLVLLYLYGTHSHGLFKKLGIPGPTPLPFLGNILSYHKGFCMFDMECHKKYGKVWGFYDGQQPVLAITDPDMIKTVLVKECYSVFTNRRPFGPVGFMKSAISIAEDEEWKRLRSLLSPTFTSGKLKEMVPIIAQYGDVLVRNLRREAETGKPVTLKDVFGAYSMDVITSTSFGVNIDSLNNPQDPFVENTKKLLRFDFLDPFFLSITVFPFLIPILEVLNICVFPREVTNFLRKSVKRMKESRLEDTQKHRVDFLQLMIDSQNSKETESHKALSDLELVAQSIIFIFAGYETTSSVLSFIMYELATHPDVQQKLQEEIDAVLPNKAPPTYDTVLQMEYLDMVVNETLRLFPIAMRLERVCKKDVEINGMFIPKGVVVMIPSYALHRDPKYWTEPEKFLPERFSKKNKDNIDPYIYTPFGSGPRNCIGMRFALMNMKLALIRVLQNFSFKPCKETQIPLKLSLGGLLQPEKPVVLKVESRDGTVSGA
Chain of UniProt P08183 (whole entry, looked up): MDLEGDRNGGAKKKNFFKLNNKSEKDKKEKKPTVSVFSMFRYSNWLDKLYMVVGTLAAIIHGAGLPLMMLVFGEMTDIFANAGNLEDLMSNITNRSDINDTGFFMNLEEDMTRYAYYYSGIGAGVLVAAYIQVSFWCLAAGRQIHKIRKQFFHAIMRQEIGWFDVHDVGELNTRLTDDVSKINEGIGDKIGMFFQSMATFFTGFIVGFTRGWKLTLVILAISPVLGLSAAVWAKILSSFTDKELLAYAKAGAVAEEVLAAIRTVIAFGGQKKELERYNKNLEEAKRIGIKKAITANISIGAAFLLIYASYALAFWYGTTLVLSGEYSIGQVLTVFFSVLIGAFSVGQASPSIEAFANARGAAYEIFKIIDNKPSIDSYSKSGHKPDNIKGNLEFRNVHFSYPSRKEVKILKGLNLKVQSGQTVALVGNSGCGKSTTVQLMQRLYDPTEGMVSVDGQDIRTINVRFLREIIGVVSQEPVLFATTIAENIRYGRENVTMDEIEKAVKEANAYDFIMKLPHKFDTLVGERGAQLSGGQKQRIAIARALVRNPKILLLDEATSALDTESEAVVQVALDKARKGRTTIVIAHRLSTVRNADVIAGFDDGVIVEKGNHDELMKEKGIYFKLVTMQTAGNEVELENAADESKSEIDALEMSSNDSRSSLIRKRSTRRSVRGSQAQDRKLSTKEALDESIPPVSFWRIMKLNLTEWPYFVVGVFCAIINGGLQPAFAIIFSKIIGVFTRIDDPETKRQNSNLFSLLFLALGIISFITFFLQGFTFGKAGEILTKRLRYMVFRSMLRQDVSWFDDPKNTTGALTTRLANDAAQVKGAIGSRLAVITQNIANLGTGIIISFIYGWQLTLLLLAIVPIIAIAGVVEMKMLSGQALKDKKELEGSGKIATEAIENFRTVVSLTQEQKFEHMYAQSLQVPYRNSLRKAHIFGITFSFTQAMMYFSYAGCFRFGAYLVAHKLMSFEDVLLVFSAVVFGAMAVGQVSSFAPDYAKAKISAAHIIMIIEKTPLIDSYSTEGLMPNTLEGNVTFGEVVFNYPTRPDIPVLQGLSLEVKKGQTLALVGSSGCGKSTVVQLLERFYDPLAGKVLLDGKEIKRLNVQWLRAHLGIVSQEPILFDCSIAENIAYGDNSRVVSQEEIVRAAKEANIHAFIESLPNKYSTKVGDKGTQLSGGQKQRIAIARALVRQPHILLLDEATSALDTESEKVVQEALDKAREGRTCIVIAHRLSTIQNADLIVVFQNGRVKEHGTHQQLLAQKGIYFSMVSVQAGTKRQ

CC(=O)c1c(C)cc2cc(O)cc(O[C@@H]3O[C@H](CO)[C@@H](O)[C@H](O)[C@H]3O)c2c1O — cell viability (HK-2 co-cultured with HepaRG; MTT; 133.33 µM, 24 h; relative to: untreated control): 100 ± 10.9%
Cc1cc(Nc2ccc(S(F)(F)(F)(F)F)cc2)n2nc(C(C)(F)F)nc2n1 — patients with QTcB above threshold (Plasmodium falciparum; 12-lead Holter ECG; human malaria patients; oral, 400 mg, QTc above 450 ms): 10%
CCCCc1oc2ccccc2c1C(=O)c1cc(I)c(OCCN(CC)CC)c(I)c1 — ALERT score (H9 human embryonic stem cell aggregates; qRT-PCR developmental regulator genes; 3D culture; 2 µM, day 5; direction not given): 6
CC[C@H]1[C@@H](O)[C@@H]2[C@H](CC[C@]3(C)[C@@H]([C@H](C)CCNC(=O)NS(=O)(=O)c4ccc(C(C)(C)C)cc4)CC[C@@H]23)[C@@]2(C)CC[C@@H](O)C[C@@H]12 — Cmax (ATP-dependent translocase ABCB1 (ABCB1, Homo sapiens, UniProt P08183); human, plasma; dose not given, mean, together with: quinidine): 33.9 ng/mL
CCCCc1oc2ccc(NS(C)(=O)=O)cc2c1C(=O)c1ccc(OCCCN(CCCC)CCCC)cc1 — ALERT score (H9 human embryonic stem cell aggregates; qRT-PCR; 3D aggregates; 0.05 µM, 5 days, developmental toxicity model; direction not given): 1
Nc1nc2c(ncn2COCCO)c(=O)[nH]1 — therapeutic index (HSV-2 strain 333; viral DNA replication, qPCR; BEAS-2B; relative to: CC50 over IC50): > 100
Nc1ccc2cc3ccccc3cc2c1 — revertants per well (Salmonella typhimurium; mini-Ames test; TA97a; 20.0 µg/well, with rat liver S9): 109
c1csc(CNc2cc[nH]n2)c1 — cells with structural aberrations (human peripheral blood lymphocytes, female; 2160 µg/mL, 4 h, without S9): 5%
O=C1c2cccc(O)c2C(=O)c2c(O)cc(CO)cc21 — viability (HK-2 co-cultured with HepaRG; MTT; 133.33 µM, 48 h; relative to: untreated control): 65.3 ± 7.75%
Cc1noc(C)c1Cn1cc(N2C(=O)CN(Cc3cccc(O)c3)C2=O)cn1 — aberrant cells with gaps (human blood lymphocytes; 1100 µg/mL, 3 h, with 5% S9): 4.5%
COc1c(O[C@@H]2O[C@H](CO)[C@@H](O)[C@H](O)[C@H]2O)cc2c(c1O)C(=O)c1c(cc(C)c(O)c1OC)C2=O — cell viability (HK-2 co-cultured with HepaRG; MTT; 66.67 µM, 24 h; relative to: untreated control): 92.1 ± 11.2%
Cc1cc(Nc2ncnc3ccc(NC4=NC(C)(CO)CO4)cc23)ccc1Oc1ccn2ncnc2c1 (stereo not shown) — AUC(0-t) (arithmetic mean) (Cytochrome P450 3A4 (CYP3A4, Homo sapiens, UniProt P08684); human, plasma; tucatinib, day 6, together with: itraconazole): 783 ng·h/mL
COc1cc2c(c(O)c1OC)C(=O)c1c(cc(C)c(O)c1OC)C2=O — cell viability (HK-2 co-cultured with HepaRG; MTT; 16.67 µM, 24 h; relative to: untreated control): 77.3 ± 8%
COC(=O)c1cccc(Cn2ccc3ccc(-c4ccc5ccn(Cc6cccc(C(=O)O)c6)c5c4)cc32)c1 — therapeutic index (human immunodeficiency virus 1; viral attachment, MAGI cell; MAGI cells, Ba-L; CCR5-tropic; relative to: TC50 over IC50): 1.93
COc1cc2c(c(OC)c1OC)C(=O)c1c(cc(C)c(O)c1OC)C2=O — viability (HK-2 co-cultured with HepaRG; MTT; 33.33 µM, 48 h; relative to: untreated control): 65.3 ± 4.86%
CC[C@H](CO)N(CCN(N=O)[C@H](CC)CO)N=O — revertant colonies per plate (Salmonella typhimurium; mutagenicity, Ames plate incorporation; TA1537; 50 µg/plate, without S9, methanol): 11 ± 6
N#Cc1ccc(Nc2nc(N)cc(Oc3ccc(-c4ccc(C#N)cc4)cc3Cl)n2)cc1 — CC50 (MT4 uninfected): 6.4 µM
O=C(/C=C/c1cccnc1)NCCCCC1CCN(C(=O)c2ccccc2)CC1 — aminopyrine N-demethylase activity (rat cytochrome P450; inhibitor; rat liver microsomes; 10 µM, 15 min, pH 7.4, together with: aminopyrine 2 mM): 5.25 nmol/min/mg
Cc1cc(O)c2c(c1)C(=O)c1cc(O)cc(O)c1C2=O — viability (HK-2 co-cultured with HepaRG; MTT; 66.67 µM, 48 h; relative to: untreated control): 67.1 ± 5.56%

Repeated from above:
COC(=O)c1cccc(Cn2ccc3ccc(-c4ccc5ccn(Cc6cccc(C(=O)O)c6)c5c4)cc32)c1 — therapeutic index (human immunodeficiency virus 1; viral attachment, MAGI cell; MAGI cells, Ba-L; CCR5-tropic; relative to: TC50 over IC50): 1.93
COc1cc2c(c(OC)c1OC)C(=O)c1c(cc(C)c(O)c1OC)C2=O — viability (HK-2 co-cultured with HepaRG; MTT; 33.33 µM, 48 h; relative to: untreated control): 65.3 ± 4.86%
